Experimental data collected from several papers.
Each numbered part is a random draw from the data of one study; scales do not carry over between parts.
UniProt Q14164, sequence (whole entry, looked up): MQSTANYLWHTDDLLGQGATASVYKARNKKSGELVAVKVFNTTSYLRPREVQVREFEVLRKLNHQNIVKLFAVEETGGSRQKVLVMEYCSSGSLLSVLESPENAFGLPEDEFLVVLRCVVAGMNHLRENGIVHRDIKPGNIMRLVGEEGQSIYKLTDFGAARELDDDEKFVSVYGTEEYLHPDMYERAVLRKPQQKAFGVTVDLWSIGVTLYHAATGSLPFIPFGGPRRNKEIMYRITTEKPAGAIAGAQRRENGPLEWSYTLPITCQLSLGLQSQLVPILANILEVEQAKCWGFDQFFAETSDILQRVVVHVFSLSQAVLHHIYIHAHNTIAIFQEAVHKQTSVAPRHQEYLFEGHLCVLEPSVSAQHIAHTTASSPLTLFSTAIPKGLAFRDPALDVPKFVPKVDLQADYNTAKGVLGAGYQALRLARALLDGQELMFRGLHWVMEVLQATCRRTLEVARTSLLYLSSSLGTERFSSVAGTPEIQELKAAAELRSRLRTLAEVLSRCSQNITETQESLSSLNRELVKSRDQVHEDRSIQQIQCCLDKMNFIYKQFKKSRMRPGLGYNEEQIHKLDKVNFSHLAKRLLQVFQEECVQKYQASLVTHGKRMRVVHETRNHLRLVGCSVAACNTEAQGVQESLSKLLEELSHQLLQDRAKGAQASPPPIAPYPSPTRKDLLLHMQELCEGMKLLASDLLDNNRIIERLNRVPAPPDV
UniProt Q9UM73, sequence (whole entry, unmodified, looked up): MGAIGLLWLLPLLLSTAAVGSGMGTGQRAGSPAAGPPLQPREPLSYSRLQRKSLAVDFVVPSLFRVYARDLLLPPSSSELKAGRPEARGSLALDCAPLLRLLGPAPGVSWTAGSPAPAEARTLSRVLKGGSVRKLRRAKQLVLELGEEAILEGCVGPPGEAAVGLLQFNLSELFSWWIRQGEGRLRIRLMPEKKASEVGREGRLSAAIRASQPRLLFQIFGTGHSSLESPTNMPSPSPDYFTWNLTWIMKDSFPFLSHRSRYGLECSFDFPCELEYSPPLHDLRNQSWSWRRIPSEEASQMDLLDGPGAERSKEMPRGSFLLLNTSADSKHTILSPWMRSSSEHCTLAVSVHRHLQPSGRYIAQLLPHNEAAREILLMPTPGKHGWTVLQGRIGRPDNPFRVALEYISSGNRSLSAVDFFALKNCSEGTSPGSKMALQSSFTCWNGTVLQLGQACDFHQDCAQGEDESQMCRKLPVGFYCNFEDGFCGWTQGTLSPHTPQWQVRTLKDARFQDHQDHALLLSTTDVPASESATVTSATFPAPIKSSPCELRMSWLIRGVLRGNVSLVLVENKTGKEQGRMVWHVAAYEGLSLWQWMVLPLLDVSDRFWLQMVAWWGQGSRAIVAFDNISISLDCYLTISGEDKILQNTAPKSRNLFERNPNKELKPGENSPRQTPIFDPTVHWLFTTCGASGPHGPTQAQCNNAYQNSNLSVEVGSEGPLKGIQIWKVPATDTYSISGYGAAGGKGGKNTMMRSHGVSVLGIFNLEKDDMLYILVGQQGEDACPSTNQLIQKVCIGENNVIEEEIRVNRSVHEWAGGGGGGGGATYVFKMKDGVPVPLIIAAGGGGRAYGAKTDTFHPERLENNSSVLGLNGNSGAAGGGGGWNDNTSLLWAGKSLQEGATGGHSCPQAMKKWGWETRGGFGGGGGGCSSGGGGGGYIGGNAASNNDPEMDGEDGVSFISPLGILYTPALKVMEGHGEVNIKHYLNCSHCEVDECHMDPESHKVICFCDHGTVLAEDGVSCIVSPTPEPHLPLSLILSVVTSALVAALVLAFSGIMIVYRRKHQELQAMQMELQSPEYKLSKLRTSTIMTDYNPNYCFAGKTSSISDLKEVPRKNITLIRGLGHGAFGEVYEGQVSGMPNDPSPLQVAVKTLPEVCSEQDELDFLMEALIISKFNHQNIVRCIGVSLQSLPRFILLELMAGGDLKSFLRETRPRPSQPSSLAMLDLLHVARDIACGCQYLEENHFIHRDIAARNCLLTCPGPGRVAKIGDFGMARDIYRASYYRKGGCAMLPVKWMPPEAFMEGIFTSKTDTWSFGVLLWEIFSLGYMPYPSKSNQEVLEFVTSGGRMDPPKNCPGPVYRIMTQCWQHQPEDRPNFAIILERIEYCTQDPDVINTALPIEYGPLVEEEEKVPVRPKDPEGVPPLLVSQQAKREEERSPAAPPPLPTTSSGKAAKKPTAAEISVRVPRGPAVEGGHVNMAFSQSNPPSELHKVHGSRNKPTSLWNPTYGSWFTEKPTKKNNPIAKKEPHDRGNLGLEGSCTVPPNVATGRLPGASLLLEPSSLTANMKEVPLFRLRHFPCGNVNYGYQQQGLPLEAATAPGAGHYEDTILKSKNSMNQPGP
UniProt Q8NEV4, sequence (whole entry, looked up): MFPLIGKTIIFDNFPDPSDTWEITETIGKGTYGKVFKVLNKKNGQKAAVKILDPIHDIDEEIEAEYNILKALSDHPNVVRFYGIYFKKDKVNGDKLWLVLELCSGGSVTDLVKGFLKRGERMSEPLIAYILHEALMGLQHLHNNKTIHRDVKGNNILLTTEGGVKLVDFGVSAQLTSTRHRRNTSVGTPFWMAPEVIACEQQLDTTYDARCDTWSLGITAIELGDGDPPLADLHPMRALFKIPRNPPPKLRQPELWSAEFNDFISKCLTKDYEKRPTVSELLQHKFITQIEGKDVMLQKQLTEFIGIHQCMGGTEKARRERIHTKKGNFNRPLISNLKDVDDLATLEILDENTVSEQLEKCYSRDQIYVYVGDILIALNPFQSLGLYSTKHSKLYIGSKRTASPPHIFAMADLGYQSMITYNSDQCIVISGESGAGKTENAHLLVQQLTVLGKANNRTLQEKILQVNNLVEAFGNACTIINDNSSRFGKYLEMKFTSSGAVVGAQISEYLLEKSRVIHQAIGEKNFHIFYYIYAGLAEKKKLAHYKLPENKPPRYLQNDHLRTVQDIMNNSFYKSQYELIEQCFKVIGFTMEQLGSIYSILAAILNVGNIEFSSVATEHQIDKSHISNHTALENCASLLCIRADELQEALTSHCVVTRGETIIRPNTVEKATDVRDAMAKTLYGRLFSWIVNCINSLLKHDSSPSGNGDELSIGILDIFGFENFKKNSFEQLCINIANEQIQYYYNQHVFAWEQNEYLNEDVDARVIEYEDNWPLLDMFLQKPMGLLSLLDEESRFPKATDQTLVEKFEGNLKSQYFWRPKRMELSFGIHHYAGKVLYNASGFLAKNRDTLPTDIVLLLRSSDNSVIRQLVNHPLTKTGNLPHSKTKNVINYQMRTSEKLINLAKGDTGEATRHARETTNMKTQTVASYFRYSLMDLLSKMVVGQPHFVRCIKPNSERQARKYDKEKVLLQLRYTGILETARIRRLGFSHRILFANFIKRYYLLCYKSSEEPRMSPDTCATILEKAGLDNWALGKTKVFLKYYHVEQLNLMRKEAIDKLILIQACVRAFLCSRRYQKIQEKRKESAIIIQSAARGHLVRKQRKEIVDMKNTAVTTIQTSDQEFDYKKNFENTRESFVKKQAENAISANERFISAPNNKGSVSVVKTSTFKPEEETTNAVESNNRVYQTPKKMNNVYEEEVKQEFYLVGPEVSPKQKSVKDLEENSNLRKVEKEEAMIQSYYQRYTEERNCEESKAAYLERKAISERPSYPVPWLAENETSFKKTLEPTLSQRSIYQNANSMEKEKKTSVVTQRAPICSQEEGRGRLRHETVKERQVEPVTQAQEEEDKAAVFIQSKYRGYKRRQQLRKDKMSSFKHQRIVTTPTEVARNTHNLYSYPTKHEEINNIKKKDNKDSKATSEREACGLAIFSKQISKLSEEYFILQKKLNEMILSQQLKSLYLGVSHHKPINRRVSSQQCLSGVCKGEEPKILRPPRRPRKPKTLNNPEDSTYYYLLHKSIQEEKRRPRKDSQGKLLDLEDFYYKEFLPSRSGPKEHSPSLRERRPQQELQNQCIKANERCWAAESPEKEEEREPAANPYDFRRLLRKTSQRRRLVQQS
UniProt O14730, sequence (whole entry, looked up): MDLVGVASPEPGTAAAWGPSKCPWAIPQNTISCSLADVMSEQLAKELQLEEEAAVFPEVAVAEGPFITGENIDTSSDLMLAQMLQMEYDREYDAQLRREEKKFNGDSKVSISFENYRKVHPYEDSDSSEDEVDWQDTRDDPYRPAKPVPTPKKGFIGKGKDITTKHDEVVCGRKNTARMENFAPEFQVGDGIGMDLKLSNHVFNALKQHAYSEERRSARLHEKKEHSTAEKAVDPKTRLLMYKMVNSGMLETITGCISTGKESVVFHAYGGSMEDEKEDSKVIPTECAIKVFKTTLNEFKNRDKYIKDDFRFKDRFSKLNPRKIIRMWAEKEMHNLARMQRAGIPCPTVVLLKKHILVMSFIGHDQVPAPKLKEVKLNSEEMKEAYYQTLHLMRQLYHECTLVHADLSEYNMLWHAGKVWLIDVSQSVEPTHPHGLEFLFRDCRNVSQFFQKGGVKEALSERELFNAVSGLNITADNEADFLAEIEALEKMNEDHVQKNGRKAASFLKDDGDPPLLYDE

Series 1
SMILES: O=C(Nc1cnc(Oc2ccc(F)cc2)nc1)N1CCc2ncccc2[C@@H]1c1ccc(F)cc1
Technique: competition with immobilised ligand
Concentration: 1 µM
The remaining binding was 100% (Myosin-IIIa (MYO3A, Homo sapiens, UniProt Q8NEV4); binding).
The remaining binding was 78% (Tyrosine-protein kinase ABL2 (ABL2, Homo sapiens, UniProt P42684); cell-free assay).
The remaining binding was 98% (Inhibitor of nuclear factor kappa-B kinase subunit epsilon (IKBKE, Homo sapiens, UniProt Q14164); cell-free assay).
It gave 90% for remaining binding (ALK tyrosine kinase receptor (ALK, Homo sapiens, UniProt Q9UM73, C1156Y); cell-free assay).
It gave 89% for remaining binding (Serine/threonine-protein kinase RIO3 (RIOK3, Homo sapiens, UniProt O14730); cell-free assay).
The remaining binding was 100% (Receptor-type tyrosine-protein kinase FLT3 (FLT3, Homo sapiens, UniProt P36888, K663Q); cell-free assay).

Series 2
Target: Calcium/calmodulin-dependent protein kinase kinase 1 (CAMKK1, Homo sapiens, UniProt Q8N5S9)
UniProt Q8N5S9, sequence (whole entry, looked up): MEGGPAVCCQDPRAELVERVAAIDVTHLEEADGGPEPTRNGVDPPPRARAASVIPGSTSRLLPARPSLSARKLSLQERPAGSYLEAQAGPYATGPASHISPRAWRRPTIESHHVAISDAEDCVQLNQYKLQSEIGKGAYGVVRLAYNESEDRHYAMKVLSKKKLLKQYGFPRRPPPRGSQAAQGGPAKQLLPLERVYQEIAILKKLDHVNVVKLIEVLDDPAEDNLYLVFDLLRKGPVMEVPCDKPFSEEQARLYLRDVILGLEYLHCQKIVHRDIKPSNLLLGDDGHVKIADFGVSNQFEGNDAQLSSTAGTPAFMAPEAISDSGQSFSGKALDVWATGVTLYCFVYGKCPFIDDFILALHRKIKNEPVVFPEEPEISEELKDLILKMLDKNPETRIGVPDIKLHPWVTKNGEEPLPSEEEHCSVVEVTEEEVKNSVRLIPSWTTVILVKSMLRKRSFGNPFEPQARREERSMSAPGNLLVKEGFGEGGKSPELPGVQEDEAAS
Effect on: enzyme activity
Mode: inhibitor
Concentration: 0.5 µM
Reference: control
For COc1cc2nccc(Oc3ccc(NC(=S)NC(=O)c4ccccc4C)cc3)c2cc1OC, the remaining activity was 91.2%.
For COc1ccc(C(=O)Nc2sc3c(c2C(N)=O)CCCC3)cc1OC, the remaining activity was 125%.
With NCCNc1ncc(C(N)=O)c(Nc2cccc(C(F)(F)F)c2)n1 the remaining activity was 95.2%.
O=C(Nc1cccc(Nc2cc(Nc3cccc(C(F)(F)F)c3)ncn2)c1)C1CC1 gave a remaining activity of 116%.
Cc1ccc(NC(=O)c2ccc(CN3CCN(C)CC3)cc2)cc1Nc1nc(-c2cccnc2)cs1 gave a remaining activity of 97.6%.
For Cc1ccc(Nc2nccc(N(C)c3ccc4c(C)n(C)nc4c3)n2)cc1S(N)(=O)=O, the remaining activity was 72%.
The remaining activity of O=S(=O)(c1cccc2cnccc12)N1CCCNCC1 is reported as 108%.
COc1cc2ncnc(Nc3ccc(Oc4ccccc4)cc3)c2cc1OC gave a remaining activity of 93.1%.
For CN(C)c1ccc(C=C2C(=O)Nc3ccccc32)cc1, the remaining activity was 98.6%.
The remaining activity of O=C1NC(=O)C(c2cn(CCCO)c3ncccc23)=C1c1cnccn1 is reported as 107%.
With Cc1nc(-c2ccccc2)c(-c2ccncc2)o1 the remaining activity was 123%.
For CNC(=O)c1cc(Oc2ccc(NC(=O)Nc3ccc(Cl)c(C(F)(F)F)c3)cc2)ccn1, the remaining activity was 103%.
For Cn1sc(=O)n(Cc2ccccc2)c1=O, the remaining activity was 114%.
The remaining activity of O=c1c2ccccc2[nH]c(=S)n1CCN1CCC(=C(c2ccc(F)cc2)c2ccc(F)cc2)CC1 is reported as 110%.
COc1ccc(OC)c2c(=S)c3ccccc3[nH]c12 has a remaining activity of 108%.
For OCC(O)CCON=C1C(c2c(O)[nH]c3ccccc23)=Nc2ccccc21 (centres unmarked), the remaining activity was 26.2%.
For COc1cc2ncnc(Nc3ccc(F)c(Cl)c3)c2cc1OCCCN1CCOCC1, the remaining activity was 93.8%.
With Nc1ccc2ncnc(NCCc3ccc(Oc4ccccc4)cc3)c2c1 the remaining activity was 119%.
O=C(O)c1ccc2c3c1cccc3c(=O)n1c3ccccc3nc21 has a remaining activity of 45.8%.
The remaining activity of CC(C)[C@H](CO)Nc1nc(Nc2cc(N)cc(Cl)c2)c2ncn(C(C)C)c2n1 is reported as 86.8%.

Series 3
Organism: Plasmodium berghei
Mode: inhibitor
Cells: Huh-7
Strain: GFP-expressing, liver stage
Concentration: 10 µM
Time: 24 h
Reference: untreated control
The infection rate of O=C1N=C(O)NC1(c1ccccc1)c1ccccc1 is reported as 90.4%.
With CCCN(CCC)S(=O)(=O)c1ccc(C(=O)O)cc1 the infection rate was 52.4%.
CN1CCN(CC/C=C2/c3ccccc3Sc3ccc(S(=O)(=O)N(C)C)cc32)CC1 has an infection rate of 33.5%.
CC(C)NCC(O)COc1cccc2[nH]ccc12 (centres unmarked) has an infection rate of 105%.
For CCCOc1ccc2[nH]c(NC(=O)OC)nc2c1, the infection rate was 88.1%.

Series 4
Host: mouse
Medium: microsomes or S9
Concentration: 2 µM
Time: 0.5 h
c1ccc2c(c1)CCN(c1nc(N3CCOCC3)c3nn[nH]c3n1)C2 has a remaining compound of 74.9%.
CCC1CCCCN1Cc1ccc(CNC(=O)c2noc3c2CCc2sccc2-3)o1 (centres unmarked) has a remaining compound of 3.5%.
For Nc1ccc2nc(CCCc3nc4ccc(N)cc4s3)sc2c1, the remaining compound was 53.7%.
With Cc1cc2cc[nH]c2cc1NC(=O)Cc1ccc(F)cc1F the remaining compound was 2.79%.
For c1ccc(C(c2ccccc2)([C@H]2CCCN2)n2cc(-c3ccccn3)nn2)cc1, the remaining compound was 1.53%.

Series 5
SMILES: COc1cc(C(=O)N2CCC(N3CCN(C)CC3)CC2)ccc1Nc1ncc2c(n1)N(C)c1ccccc1C(=O)N2C
It gave 1.7% for inhibition (inhibitor, KiNativ profiling, refers to: peptide VLGTGAYGkVFLVR; human PBMC lysate; concentration not given, ATP loop site, with: ADP acyl-phosphate probe).
It gave 9.1% for inhibition (TLK1 and TLK2 (human); probe labelling, KiNativ, refers to: Lys2 site peptide; PBMC lysate (human); 0.1 µM, with: ATP acyl-phosphate probe).
The inhibition was -9.1% (CaMK2d (mouse); probe labelling, KiNativ, refers to: Lys1 site peptide; brain tissue lysate (mouse); 1 µM, with: ATP acyl-phosphate probe).
AKT1 (mouse); probe labelling, KiNativ, refers to: GTFGkVILVK peptide, ATP loop; brain tissue lysate (mouse); 0.1 µM, with: ATP acyl-phosphate probe — inhibition: 2.5%.
inhibitor, KiNativ profiling, refers to: peptide TSTQEYAAkIINTK; human PBMC lysate; concentration not given, Lys1 site, with: ATP acyl-phosphate probe — inhibition: -3.5%.

Repeated from above (series 2):
For Cc1ccc(Nc2nccc(N(C)c3ccc4c(C)n(C)nc4c3)n2)cc1S(N)(=O)=O, the remaining activity was 72%.
The remaining activity of O=S(=O)(c1cccc2cnccc12)N1CCCNCC1 is reported as 108%.
COc1cc2ncnc(Nc3ccc(Oc4ccccc4)cc3)c2cc1OC gave a remaining activity of 93.1%.
